Measurements gathered from unrelated publications.
Parts stem from different laboratories: compare values within a part only.

Study 1 — method: protein binding microarray; molecule type: double-stranded DNA, one strand shown; sample: in vitro; tested at: not given; reference: not given; reading: higher = stronger binding
Target: Histone acetyltransferase KAT6A, both winged helices, GST fusion (KAT6A, Homo sapiens, UniProt Q92794, residues 1-181)
Setting: 8-mer, flanks averaged, mean of 2 arrays, mostly near background
Residues (chain): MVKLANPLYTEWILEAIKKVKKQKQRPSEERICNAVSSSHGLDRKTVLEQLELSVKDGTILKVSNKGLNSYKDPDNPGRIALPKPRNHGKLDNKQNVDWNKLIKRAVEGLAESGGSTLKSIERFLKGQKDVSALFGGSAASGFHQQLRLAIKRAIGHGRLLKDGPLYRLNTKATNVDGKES
| Sequence | E-score |
| --- | --- |
| GATCTTGC | 0.000505 |
| TCCTCGCA | 0.0282 |
| TGCCAGAA | -0.0585 |
| CGATTGGA | -0.0659 |
| CCAAAAAA | -0.0361 |
| CATTCCGC | 0.173 |
| AGGTGCAC | -0.114 |
| GTTCGACA | -0.0885 |
| CGACTGTC | 0.0481 |
| AACTCCGA | 0.0632 |
| GCGGGGGA | 0.0689 |
| TCAGACAA | -0.0871 |
| GCTTCTAC | 0.00314 |
| AGATTCTA | -0.103 |
| GCAGGACC | -0.0532 |
| GCTCAGTA | -0.0247 |
| ACCCCGAC | 0.185 |
| AGGTGATG | -0.148 |
| TGTTAACA | 0.0602 |
| AATAGCTC | -0.133 |
| GGTCTGAC | 0.0103 |
| GCCTTCCC | -0.0257 |
| AAGTGCAT | -0.0261 |
| AATATGTC | -0.113 |
| CACTACTG | -0.14 |

Study 2 — method: RNA Bind-n-Seq; molecule type: RNA; sample: in vitro; tested at: not given; setting: RNA with constant flanks, ends assumed; reference: input RNA pool; reading: higher = stronger binding
Target: RING finger protein unkempt homolog, zinc fingers 1-6, GST-SBP tag (UNK, Homo sapiens, UniProt Q9C0B0, residues 30-357)
Shared flanks, not repeated: GGGAGUUCUACAGUCCGACGAUC … CAACAGAGGAUUGAGCAUCA
Target sequence (chain): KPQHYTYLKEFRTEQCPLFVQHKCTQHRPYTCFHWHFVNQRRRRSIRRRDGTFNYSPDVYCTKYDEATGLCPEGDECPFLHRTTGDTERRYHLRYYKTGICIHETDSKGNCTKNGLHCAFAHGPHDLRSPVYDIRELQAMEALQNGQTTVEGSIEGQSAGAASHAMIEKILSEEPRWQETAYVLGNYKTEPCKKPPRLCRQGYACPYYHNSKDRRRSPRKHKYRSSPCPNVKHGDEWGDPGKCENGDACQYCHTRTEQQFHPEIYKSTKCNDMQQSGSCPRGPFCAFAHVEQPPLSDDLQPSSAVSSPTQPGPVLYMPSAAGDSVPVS
| Sequence | bound/input enrichment |
| --- | --- |
| GUCCUUAUUGAUCCUUUUUCUUGGCGUUACCAUUUUUGAAGCAAAGUUAACCUAGCUUUCCCGCUUGAGCUUUCUUUUUGGCCAUCUUUUAAAACUUUUUUUUUUUUUUUUGAUCUAUAA | 2.63 ratio |
| GCUGCCUGCACAGAGAAGAAAAUCCCUGUUGUGUUUAGACUACAAGAGGGUUAUGAUCACCGCUACUACUUCAUUGCAACUUUCAUCGCUGACCACAUCAGACACCAUGCUAAGUACCUG | 0.145 ratio |
| GUGCUUCACAUUUGUAUGUGUGUAGACUGUAACUUUUUUUCAGUUCAUAUGCAGAACGUAUUCCGCCAUUACCCACGUGACACCACCGAAUAUAUUACUGAUUUAGAAGCAAAGAUUUCA | 0.416 ratio |
| GGAAGUAAUCCUACAUCAGCCUCUGAUGAUUCCAAUGGGCUGGAGUGGGAAAAUGAUUUUGUCCGUGCCGAAAUGGAUGAUAAUGGAAAUUCCGAGUAUUCUGGAUUUGUAAAUCCUGUA | 0.113 ratio |
| UUGGCUACACUUUUCAGUGCAUUGACUGGUUUGCCAUGGAGUCUUUAUAAUACUUUUGUGACCGAAGAAAAACAUGGCUUCAAUCAACAGACUUUGGGGUUCUUCAUGAAAGAUGCAAUC | 0.0732 ratio |
| GUCAUGCCGGGGAUAGUGGAGCUGCCCACUCUAGAGGAGCUGAAAGUAGAUGAGGUGAAAAUCCGUUCUGCUGUGCUUAAAGCUGCGGCCCAUCACUAUGGAGCUCAAUGUGAUAAGCCC | 8.28 ratio |
| GUGUGCAAAAGCAAGAAGUCCUGGCAAGCGAGACACACUGGUAUUAAGAUUGUACAACAGACCGCUAUUCUUAUGGGCUGUGCCAUCUUGCCACAUCUUAGAAGUUUAGUUGAAAUCAUU | 1.06 ratio |
| UGCUGCUACAUGAACUUCACAGGGGCCCAAAGCCAUUGUCUGCAUGUGUCUGCCCAGAAGAUGCCCGACAAUGCUGCUUUCACCCUGUAUGAGUUCUGGCAGGAUGAAGCCUCCUGGAGA | 0.0705 ratio |

Study 3 — method: protein-binding microarray; molecule type: double-stranded DNA, one strand shown; sample: in vitro; tested at: not given; reading: higher = stronger binding
Target: Hepatocyte nuclear factor 3-beta, forkhead domain (FOXA2, Homo sapiens, UniProt Q9Y261, residues 142-269)
Setting: k-mer, scored over probes, only values ≥0.25
Construct (chain): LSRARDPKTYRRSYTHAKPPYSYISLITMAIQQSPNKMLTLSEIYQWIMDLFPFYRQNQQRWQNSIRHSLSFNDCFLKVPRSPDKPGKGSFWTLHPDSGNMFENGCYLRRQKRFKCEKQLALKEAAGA
| Sequence | E-score |
| --- | --- |
| ATATATGA | 0.36 |
| AAGATATA | 0.323 |
| ATATGGTA | 0.367 |
| AATGTCTA | 0.314 |
| AGATACAT | 0.254 |
| CAATACGA | 0.253 |
| GTGTCATA | 0.334 |
| ATTGAATA | 0.343 |
| CAAGACAA | 0.255 |
| ACATTTAA | 0.316 |
| CTTTAATA | 0.299 |
| GACTATAC | 0.283 |
| GTTAATCA | 0.322 |
| GTAATATA | 0.353 |
| AGTATATA | 0.363 |
| TGTTGAAA | 0.282 |
| TGTATACA | 0.402 |
| ACCAAATA | 0.299 |
| TACGGTAA | 0.297 |
| GGATGTAA | 0.254 |
| ACGTAAAA | 0.268 |
| ATTGATAG | 0.287 |
| GTTTTGTA | 0.297 |
| ACTGTGTA | 0.3 |
| ATGGTATC | 0.273 |

Study 4 — method: protein-binding microarray; molecule type: double-stranded DNA, one strand shown; sample: in vitro; tested at: 2200 nM top; setting: 60-bp whole probe; together with: salmon DNA 0.4 mg/ml; reference: random background probes; reading: higher = stronger binding; shared flanks, not repeated: GCCTAGCAC … GTCTTGATTCGCTTGACGCTGCTG
Target: Interferon regulatory factor 7, full length, phosphomimetic (IRF7, Homo sapiens, UniProt Q92985, residues 1-503, S471D/S472D/S475D/S476D/S477D/S483D/S484D/S487D)
Construct (chain): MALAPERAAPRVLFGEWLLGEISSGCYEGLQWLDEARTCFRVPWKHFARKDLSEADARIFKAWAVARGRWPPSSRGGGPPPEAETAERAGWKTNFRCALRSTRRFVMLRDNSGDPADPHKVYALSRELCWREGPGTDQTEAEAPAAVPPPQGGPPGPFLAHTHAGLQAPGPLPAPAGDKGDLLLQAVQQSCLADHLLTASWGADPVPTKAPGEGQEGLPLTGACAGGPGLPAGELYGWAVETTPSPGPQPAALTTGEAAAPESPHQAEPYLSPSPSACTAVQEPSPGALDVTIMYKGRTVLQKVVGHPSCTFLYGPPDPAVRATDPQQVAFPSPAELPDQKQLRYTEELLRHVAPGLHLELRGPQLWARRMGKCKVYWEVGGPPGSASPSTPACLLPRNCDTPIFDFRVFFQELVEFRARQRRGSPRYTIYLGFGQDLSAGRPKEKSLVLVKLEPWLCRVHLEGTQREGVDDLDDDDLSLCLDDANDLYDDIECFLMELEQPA
| Sequence | fitted relative affinity [z-score] |
| --- | --- |
| TTAGAACTGCGTTTCGATTAGTGCTAG | 1.73 |
| TTAGACCTGAGACTGGATTAGTGCTAG | -0.606 |
| TTAGGTATCGACACTGGGATAGTGCTA | -0.126 |
| GACGGACTGGGTATCGGGCCGTGCTAG | -1.22 |
| TAGTTTCTAAAACTCTTTATGTGCTAG | 1.13 |
| GACGATTTCGGGTTTCCAGACGTGCTA | 4.99 |
| TCACTTATGATATATATAACTGTGCTA | 0.554 |
| TTAGGACTGGGACTCGGTTAGTGCTAG | -0.299 |
| TCATGTCTGTTTCCTCTTACTGTGCTA | 2.91 |
| GACGATATCAGAGTGGAGACGTGCTAG | -0.303 |
| TGCTTCCTCTTTCTCTGCTAGTGCTAG | 3.65 |
| TCTAATTAGAATTTAAAACAGTGCTAG | -0.758 |
| CTTTATTTAAGCTCCTATCTTGTGCTA | 0.613 |
| TCATTTTCCTTATTGCTTACTGTGCTA | 4.26 |
| TTAGATCTGAGTTTCGATTAGTGCTAG | 4.14 |
| TCAACTTTCTACTTCTCACTGTGCTAG | 5.38 |
| TTAGATATCTGGACTGGATTAGTGCTA | -0.403 |
| TTAGGACTGCTTATCCTTGAGTGCTAG | 0.145 |
| GACGATTTCAGTCTGGAGACGTGCTAG | 0.604 |

For quick reference, copied from above (study 4):
| Sequence | fitted relative affinity [z-score] |
| --- | --- |
| CTTTATTTAAGCTCCTATCTTGTGCTA | 0.613 |
| TTAGAACTGCGTTTCGATTAGTGCTAG | 1.73 |
| TGCTTCCTCTTTCTCTGCTAGTGCTAG | 3.65 |
| TTAGGACTGGGACTCGGTTAGTGCTAG | -0.299 |
| TTAGGACTGCTTATCCTTGAGTGCTAG | 0.145 |
| TTAGATATCTGGACTGGATTAGTGCTA | -0.403 |
| TCACTTATGATATATATAACTGTGCTA | 0.554 |
| TCTAATTAGAATTTAAAACAGTGCTAG | -0.758 |
| TTAGGTATCGACACTGGGATAGTGCTA | -0.126 |
| TTAGACCTGAGACTGGATTAGTGCTAG | -0.606 |
